Results gathered from unrelated publications.
Lines come from different studies, so protocols differ. “And” joins repeats or separate records; there may be more than shown. ± marks the error that the study gave.
TRPM8: Transient receptor potential cation channel subfamily M member 8 (TRPM8, Homo sapiens, UniProt Q7Z2W7)
GAP50: Glideosome-associated protein 50 (GAP50, Plasmodium falciparum, UniProt Q8I2X3)
FFAR4: Free fatty acid receptor 4 (FFAR4, Homo sapiens, UniProt Q5NUL3)
NADH dehydrogenase [ubiquinone] iron-sulfur protein 7, mitochondrial/NADH dehydrogenase [ubiquinone] iron-sulfur protein 2, mitochondrial/MT-ND1: NADH dehydrogenase [ubiquinone] iron-sulfur protein 7, mitochondrial/NADH dehydrogenase [ubiquinone] iron-sulfur protein 2, mitochondrial/MT-ND1 (Homo sapiens, UniProt O75251+O75306+P03886)
Maoa: Amine oxidase [flavin-containing] A (Maoa, Rattus norvegicus, UniProt P21396)
Kir3.1/Kir3.2: Kir3.1/Kir3.2 (Homo sapiens, UniProt P48051+P48549)
PDE1C isoform PDE1C2: Dual specificity calcium/calmodulin-dependent 3',5'-cyclic nucleotide phosphodiesterase 1C, isoform PDE1C2 (PDE1C, Homo sapiens, UniProt Q14123)

Compound | target | assay | test system | setting | scale | measurement | value
CN1CCN(c2cc(-c3ccncc3)c(-c3ccc4ccccc4c3)nn2)CC1 | SSTR2 (Homo sapiens, UniProt P30874) | agonist, FLIPR |  | 12.5 µM |  | activation | -0.6%
CN(C)CCCn1cc(C2=C(c3c[nH]c4ccccc34)C(=O)NC2=O)c2ccccc21 | TRPM8 | antagonist | HEK293 | 5 µM | baseline: control | remaining activity | 101 ± 6.26%
COc1ccc(Oc2ccc([C@@H](C)N(C)c3ncc4c(N)nc(N)nc4n3)cc2)cc1 | GAP50 | binding, surface plasmon resonance |  | 1:1 binding model |  | kon | 628 M⁻¹ s⁻¹
CC(=O)N[C@H]1[C@H](Oc2ccc([N+](=O)[O-])cc2)O[C@H](CO)[C@@H](O)[C@@H]1O | beta-N-acetylglucosaminidase, soil Bacillus sp. | substrate, p-nitrophenol release |  | pH 6.1, 37 °C, Sephadex G-200 purified |  | Km | 170 ± 10 µM
CCCCCCNc1[nH]c(=O)[nH]c(=O)c1N=O | FFAR4 | agonist, β-arrestin recruitment | CHO cells | 10 µM | baseline: 30 µM TUG-891 | agonist effect | 1 ± 1%
C=CC(=O)N1CCC(COCC(=O)N2CCN(c3nc(-c4cnc(N)nc4C(F)F)nc(N4CCOC[C@@H]4C)n3)CC2)CC1 | FLT3 (Homo sapiens, UniProt P36888) | KINOMEscan |  | 1 µM |  | remaining binding | 86%
O=C(NC1CCC1)c1ccc2nc(-c3cccc(NS(=O)(=O)NCCN4CCCCC4)c3)cn2c1 | Protein ENL (MLLT1, Homo sapiens, UniProt Q03111) | degrader, immunoblot, item: MLLT1 |  | 10 µM, 48 h | baseline: DMSO control | protein level | 36%
CC(=C/C(=O)O)/C=C/C=C(\C)C1C=C2C(C)(C)CCCC2(C)O1 (stereo not drawn) | Rhodopsin (RHO, Homo sapiens, UniProt P08100, E181K) | immunostaining, item: opsin | COS-7 transfected | 20.00 µM, unit not given | baseline: surface over total stained cells | plasma membrane localization | 0.87
Nc1nc2ccc(F)cc2[nH]1 | HVCN1 (Homo sapiens, UniProt Q96D96) | proton current, inhibitor, inside-out patch clamp | Xenopus oocytes | dimeric channel |  | Hill coefficient | 1.06 ± 0.06
Oc1ccc(/C=C/c2cc(O)cc(O)c2)cc1 | O-methyltransferase (Sorghum bicolor, UniProt A0A1B6PFV1) | biolayer interferometry |  | added: saturating sinefungin | baseline: apo | kon increase | 8.4 fold
Nc1ncnc2c1ncn2[C@@H]1O[C@H](CO[P@](=O)(O)O[P@](=O)(O)O[P@@](=O)(O)S)[C@@H](O)[C@H]1O | GUK1 (Homo sapiens, UniProt Q16774, R148A) | binding, ITC |  |  |  | ΔG | -22.2 kJ/mol
OC[C@H]1OC(O)[C@H](O)[C@@H](O)[C@@H]1O (stereo partly drawn) | Hexokinase-3 (HK3, Homo sapiens, UniProt P52790) | enzyme activity, substrate inhibitor, coupled G6PDH |  |  |  | maximal inhibition | ~50%
NC(=O)NOCCCCCCCCCCCCCCCC[P+](c1ccccc1)(c1ccccc1)c1ccccc1.O=C([O-])C(F)(F)F | NADH dehydrogenase [ubiquinone] iron-sulfur protein 7, mitochondrial/NADH dehydrogenase [ubiquinone] iron-sulfur protein 2, mitochondrial/MT-ND1 | complex I-dependent respiration, Seahorse XF96 | HCT-116 | 3 µM, 24 h | baseline: control | oxygen consumption rate | 15.8 ± 4.12%
Nc1ncnc2c1ncn2[C@@H]1O[C@H](COP(=O)(O)OP(=O)(O)OP(=O)(O)O)[C@@H](O)[C@H]1O | P2X purinoceptor 7 (P2rx7, Rattus norvegicus, UniProt Q64663) | ion current, agonist, two-electrode voltage clamp | Xenopus laevis oocytes | 1000 µM | baseline: highest concentration response | normalized current | 0.96 and 1 and 0.98
NCc1ccc(Br)cc1 | Maoa | substrate |  | pH 7.5, 25 °C, α,α-protio substrate |  | kcat | 1.03 ± 0.0167 s⁻¹
C[C@]1(O)C[C@@H](c2nc(-c3ccc4ccc(-c5ccccc5)nc4c3)c3c(N)nccn32)C1 | FECH (Homo sapiens, UniProt P22830) | inhibitor, competition gel profiling |  | concentration not given |  | binding inhibition | inhibited
O=c1cc(NCCc2ccccc2Cl)[nH]c(=O)[nH]1 | FFAR4 | agonist, β-arrestin recruitment | CHO cells | 10 µM |  | activation | 1 ± 1%
Cc1ccccc1C(=O)N1NC(=Nc2ccccc2)SC1(C)C | GAP50 | binding, surface plasmon resonance |  | 1:1 binding model |  | kon | 3270 M⁻¹ s⁻¹
Cc1nn(C2CCS(=O)(=O)C2)c(C)c1NC(=O)COc1cc(Cl)ccc1Cl (stereo not drawn) | Kir3.1/Kir3.2 | activator, thallium flux | HEK293 | concentration not given |  | activity | inactive
NC(=O)NO | NADH dehydrogenase [ubiquinone] iron-sulfur protein 7, mitochondrial/NADH dehydrogenase [ubiquinone] iron-sulfur protein 2, mitochondrial/MT-ND1 | complex I-dependent respiration, Seahorse XF96 | HCT-116 | 150 µM, 24 h | baseline: control | oxygen consumption rate | 86.1 ± 3.5%
Cc1cc(NC(=O)C2CCc3ccccc3O2)n(C2CCS(=O)(=O)C2)n1 (stereo not drawn) | Kir3.1/Kir3.2 | thallium flux, activator | HEK293 |  | baseline: standard compound | Emax | 45%

Compound | target | assay | test system | setting | scale | measurement | value
O=C(ON1C(=O)CCC1=O)c1cc(C(F)(F)F)cc(C(F)(F)F)c1 | CD209 antigen (CD209, Homo sapiens, UniProt Q9NNX6) | covalent labelling, intact protein MS |  | 100 µM |  | kobs | 0.175 min⁻¹
Nc1cccc(-c2cc3c(Oc4cccc(O)c4)ncnc3[nH]2)c1 | TRPM8 | antagonist | HEK293 | 5 µM | baseline: control | remaining activity | 100 ± 8.49%
C#CCN(CCCN1CCN(c2ccc(F)cc2)CC1)Cc1ccc(C(=O)c2ccc([N+](=O)[O-])cc2)cc1 | TMEM97 (Homo sapiens, UniProt Q5BJF2) | radioligand binding | RT-4 cell membranes |  | baseline: sigma1 Ki over sigma2 Ki | Ki ratio | 4.18
[H]/N=C(/N)NCC(=O)O | SLC6A6 (Homo sapiens, UniProt P31641, L306A) | binding, microscale thermophoresis |  | 488 nM, room temperature, added: 50 nM labelled protein | higher = more binding | normalised MST signal | -0.0183
CCCCCCCNc1cc(=O)[nH]c(=O)[nH]1 | FFAR4 | β-arrestin recruitment | CHO | 10 µM | baseline: 30 µM TUG-891 | agonist effect | 0%
Cc1cc2c(c(=O)[nH]1)C(=O)O/C2=C\c1cc(F)ccc1OC(C)C | PDE1C isoform PDE1C2 | enzyme activity, inhibitor |  | added: 3H-cGMP substrate |  | binding free energy | -44.4 kJ/mol
Nc1ccc(C(=O)O)cc1 | BEST1, with wild-type BEST1 (Homo sapiens, UniProt O76090, R218H) | ion current, whole-cell patch clamp | HEK293 co-expressing mutant and wild-type | concentration not given, voltage -100 mV |  | current density | -13.1 pA/pF and -10.5 pA/pF and -15.8 pA/pF and -26.3 pA/pF and -23.7 pA/pF and -38.4 pA/pF and -4.11 pA/pF and -4.8 pA/pF
Cc1nc(CSc2nc(SCc3ccc(C(C)C)cc3)nc(=O)[nH]2)cs1 | TOP2A (Homo sapiens, UniProt P11388) | decatenation |  | 31.25 µM, replicate 2 |  | decatenated DNA | 14%
NCc1ccc(F)cc1 | Maoa | substrate |  | pH 7.5, 25 °C, α,α-protio substrate |  | kcat | 0.233 ± 0.00667 s⁻¹
CC[C@H](C)C(=O)O[C@H]1C[C@H](O)C=C2C=C[C@H](C)[C@H](CC[C@@H](O)C[C@@H](O)CC(=O)O)[C@H]21 | Nuclear receptor subfamily 4 group A member 2, LBD (Homo sapiens, UniProt P43354) | reporter gene, Gal4 hybrid reporter |  | 10 µM | baseline: vehicle | activation | 1.18 fold
O=c1cc(NCc2ccccc2)[nH]c(=O)[nH]1 | FFAR4 | agonist, β-arrestin recruitment | CHO cells | 10 µM |  | activation | 0%
O=C(NCc1ccc(CNS(=O)(=O)c2ccccc2)cc1)c1ccncc1 | CXCR4 (Homo sapiens, UniProt P61073) | binding, inhibitor, competitive binding | MDA-MB-231 | added: biotinylated TN14003 |  | EC | 10 nM
CCCCCCCCNc1cc(=O)n(C)c(=O)n1C | FFAR4 | antagonist, β-arrestin recruitment | CHO cells | 10 µM |  | inhibition | 30 ± 3%
Cc1cc2c(c(=O)[nH]1)C(=O)O/C2=C\c1cc(F)ccc1OCCN1CCOCC1 | PDE1C isoform PDE1C2 | enzyme activity, inhibitor |  | added: 3H-cGMP substrate |  | binding free energy | -42.8 kJ/mol
CC[C@@H]1[C@H](F)C(=O)N[C@@H]1COc1nccc2cc(C(N)=O)c(OC)cc12 | MAP3K21 (Homo sapiens, UniProt Q5TCX8) | ATP-site probe binding, ActivX profiling, item: MLK4 | THP-1 cell lysate | 0.2 mM, Lys2 site |  | inhibition | 4.6%
O=C(COP(=O)(O)O)[C@@H](O)[C@H](O)[C@H](O)COP(=O)(O)O | Large ribosomal subunit protein uL4 (Homo sapiens, UniProt P36578) | thermal proteome profiling, item: RPL4 | HepG2 cell lysate | concentration not given, 57 over 37 °C | baseline: compound over control | thermal stability ratio | 0.931 and 0.586 and 0.682
CCCCCCCCNc1[nH]c(=O)[nH]c(=O)c1Br | FFAR4 | antagonist, β-arrestin recruitment | CHO cells | 10 µM |  | inhibition | 14 ± 3%
COc1nc2ccc(Br)cc2cc1[C@@H](c1ccccc1)[C@@](O)(CCN(C)C)c1cccc2ccccc12 | GAP50 | binding, surface plasmon resonance |  | 1:1 binding model |  | koff | 0.0182 s⁻¹
N#Cc1ccsc1NC(=O)COc1ccc(Cl)cc1Cl | Kir3.1/Kir3.2 | thallium flux, activator | HEK293 |  | baseline: standard compound | Emax | < 10%
O=C(O)CCCCCCCNc1cc(=O)[nH]c(=O)[nH]1 | FFAR4 | β-arrestin recruitment | CHO | 10 µM | baseline: 30 µM TUG-891 | agonist effect | 0%
C[C@@H](c1cc(Cl)cc(Cl)c1)N(C)c1ncc2c(N)nc(N)nc2n1 | GAP50 | binding, surface plasmon resonance |  | 1:1 binding model |  | kon | 6770 M⁻¹ s⁻¹

Some of these lines once more:
Compound | target | assay | test system | setting | scale | measurement | value
Nc1cccc(-c2cc3c(Oc4cccc(O)c4)ncnc3[nH]2)c1 | TRPM8 | antagonist | HEK293 | 5 µM | baseline: control | remaining activity | 100 ± 8.49%
C#CCN(CCCN1CCN(c2ccc(F)cc2)CC1)Cc1ccc(C(=O)c2ccc([N+](=O)[O-])cc2)cc1 | TMEM97 (Homo sapiens, UniProt Q5BJF2) | radioligand binding | RT-4 cell membranes |  | baseline: sigma1 Ki over sigma2 Ki | Ki ratio | 4.18
[H]/N=C(/N)NCC(=O)O | SLC6A6 (Homo sapiens, UniProt P31641, L306A) | binding, microscale thermophoresis |  | 488 nM, room temperature, added: 50 nM labelled protein | higher = more binding | normalised MST signal | -0.0183
CCCCCCCNc1cc(=O)[nH]c(=O)[nH]1 | FFAR4 | β-arrestin recruitment | CHO | 10 µM | baseline: 30 µM TUG-891 | agonist effect | 0%
Cc1cc2c(c(=O)[nH]1)C(=O)O/C2=C\c1cc(F)ccc1OC(C)C | PDE1C isoform PDE1C2 | enzyme activity, inhibitor |  | added: 3H-cGMP substrate |  | binding free energy | -44.4 kJ/mol
Nc1ccc(C(=O)O)cc1 | BEST1, with wild-type BEST1 (Homo sapiens, UniProt O76090, R218H) | ion current, whole-cell patch clamp | HEK293 co-expressing mutant and wild-type | concentration not given, voltage -100 mV |  | current density | -13.1 pA/pF and -10.5 pA/pF and -15.8 pA/pF and -26.3 pA/pF and -23.7 pA/pF and -38.4 pA/pF and -4.11 pA/pF and -4.8 pA/pF
